{"data": "Results gathered from unrelated publications", "note": "Protocols differ between the studies behind these lines. ± marks the error that the study gave."}
{"Compound": "NCCCN1CC(=O)N(Cc2ccccc2)CC(=O)N(CCCN)CC(=O)N(Cc2ccccc2)CC(=O)N(CCCN)CC(=O)N(Cc2ccccc2)CC(=O)N(CCCN)CC(=O)N(Cc2ccccc2)CC(=O)N(CCCN)CC(=O)N(Cc2ccccc2)CC1=O", "assay": "X-ray reflectivity", "test system": "DPPG monolayer headgroups", "quantity": "extra electrons per lipid", "value": "134 ± 7"}
{"Compound": "N#Cc1ccc(C2CC(c3ccccc3O)=NN2c2ccccc2)cc1 (stereo not drawn)", "target or system": "HeLa", "assay": "cell viability, MTT", "conditions": "72 h", "quantity": "EC50", "value": "> 500 µM"}
{"Compound": "Cc1ccc(C(=O)N/N=C/c2cc(Br)ccc2OCC(=O)O)cc1", "assay": "Racine scale 0-5", "test system": "male mice, pilocarpine-induced seizures", "conditions": "oral, 20 mg/kg, 1 h after pilocarpine, unit not given, together with: pilocarpine 300 mg/kg i.p.", "how to read": "higher = more severe", "quantity": "seizure severity", "value": "2.8 ± 0.63"}
{"Compound": "CC(C)C[C@H](NC(=O)OCc1cccc(Cl)c1)C(=O)N[C@H](C=O)C[C@@H]1CCNC1=O", "target or system": "feline coronavirus", "assay": "viral replication", "test system": "CRFK, FIPV-1146", "conditions": "36 h", "quantity": "EC50", "value": "0.04 ± 0.01 µM"}
{"Compound": "NCCCN1CC(=O)N(Cc2ccccc2)CC(=O)N(CCCN)CC(=O)N(Cc2ccccc2)CC(=O)N(CCCN)CC(=O)N(Cc2ccccc2)CC1=O", "assay": "X-ray reflectivity", "test system": "DPPG monolayer headgroups", "quantity": "extra electrons per lipid", "value": "61 ± 5"}
{"Compound": "CCCCCC(=O)OCn1cc(F)c(=O)[nH]c1=O", "target or system": "Caco-2", "assay": "cell growth or viability, MTT", "conditions": "48 h", "quantity": "IC50", "value": "10.8 µM"}
{"Compound": "CCN(CC)c1ccc(C2CC(c3ccccc3O)=NN2c2ccccc2)cc1 (stereo not drawn)", "target or system": "MCF7", "assay": "cell viability, MTT", "conditions": "72 h", "quantity": "EC50", "value": "250 ± 0.09 µM"}
{"Compound": "NCCCN1CC(=O)N(CC(c2ccccc2)c2ccccc2)CC(=O)N(CCCN)CC(=O)N(CC(c2ccccc2)c2ccccc2)CC(=O)N(CCCN)CC(=O)N(CC(c2ccccc2)c2ccccc2)CC1=O", "assay": "epifluorescence microscopy", "test system": "DPPG monolayer", "quantity": "time to monolayer disruption", "value": "< 5 min"}
{"Compound": "Oc1ccccc1C1=NN(c2ccccc2)C(c2ccc(C(F)(F)F)cc2)C1 (stereo not drawn)", "target or system": "HeLa", "assay": "cell growth or viability, MTT", "conditions": "72 h", "quantity": "EC50", "value": "> 500 µM"}
{"Compound": "CC(C)C[C@H](NC(=O)[C@@H](NC(=O)[C@H](CCCNC(=N)N)NS(=O)(=O)Cc1ccccc1)C(C)C)[C@@H](O)CC(=O)NCCc1ccccc1", "target or system": "Plasmodium falciparum", "assay": "parasite growth", "test system": "3D7", "conditions": "blood stage", "quantity": "EC50", "value": "6.05 µM"}
{"Compound": "NCCCN1CC(=O)N(Cc2cc(C(F)(F)F)cc(C(F)(F)F)c2)CC(=O)N(CCCN)CC(=O)N(Cc2cc(C(F)(F)F)cc(C(F)(F)F)c2)CC(=O)N(CCCN)CC(=O)N(Cc2cc(C(F)(F)F)cc(C(F)(F)F)c2)CC1=O", "assay": "X-ray reflectivity", "test system": "DPPG monolayer headgroups", "quantity": "extra electrons per lipid", "value": "188 ± 8"}
{"Compound": "CC(C)C[C@H](NC(=O)OCc1ccccc1)C(=O)N[C@@H](C[C@@H]1CCNC1=O)C(O)S(=O)(=O)O (stereo partly drawn)", "target or system": "feline coronavirus", "assay": "viral replication", "test system": "CRFK, FIPV-1146", "conditions": "36 h", "quantity": "EC50", "value": "0.05 ± 0.04 µM"}
{"Compound": "Oc1ccccc1C1=NN(c2ccccc2)C(c2ccc(F)cc2)C1 (stereo not drawn)", "target or system": "MCF7", "assay": "cell viability, MTT", "conditions": "72 h", "quantity": "EC50", "value": "> 500 µM"}
{"Compound": "CC(C)C[C@@H]1NC(=O)[C@H](CCCN)NC(=O)[C@H](C(C)C)NC(=O)[C@@H]2CCCN2C(=O)[C@@H](Cc2ccccc2)NC(=O)[C@H](CC(C)C)NC(=O)[C@H](CCCN)NC(=O)[C@H](C(C)C)NC(=O)[C@@H]2CCCN2C(=O)[C@@H](Cc2ccccc2)NC1=O", "assay": "X-ray reflectivity", "test system": "DPPG monolayer tails", "quantity": "extra electrons per lipid", "value": "34 ± 3"}
{"Compound": "Oc1ccccc1C1=NN(c2ccccc2)C(c2cccs2)C1 (stereo not drawn)", "target or system": "MCF7", "assay": "cell viability, MTT", "conditions": "72 h", "quantity": "EC50", "value": "> 500 µM"}
{"Compound": "O=C(O)COc1ccccc1/C=N/NC(=O)CNc1ccc(Cl)cc1", "assay": "Racine scale 0-5", "test system": "male mice, pilocarpine-induced seizures", "conditions": "oral, 20 mg/kg, 1 h after pilocarpine, unit not given, together with: pilocarpine 300 mg/kg i.p.", "how to read": "higher = more severe", "quantity": "seizure severity", "value": "3.2 ± 0.63"}
{"Compound": "O=C1Nc2ccc(S(=O)(=O)Nc3ccccc3)cc2C1=C1CCCC1", "target or system": "RAW264.7", "assay": "refers to: TNF-α", "conditions": "concentration not given, together with: LPS 100 ng/mL, 24 h", "quantity": "mRNA level", "value": "decreased"}
{"Compound": "CN(C)c1ccc(C2CC(c3ccccc3O)=NN2c2ccccc2)cc1 (stereo not drawn)", "target or system": "MCF7", "assay": "cell viability, MTT", "conditions": "72 h", "quantity": "EC50", "value": "> 500 µM"}
{"Compound": "O=C[C@H](C[C@@H]1CCNC1=O)NC(=O)[C@H](CC1CCCCC1)NC(=O)OCc1ccccc1", "target or system": "feline coronavirus", "assay": "viral replication", "test system": "CRFK, FIPV-1146", "conditions": "36 h", "quantity": "EC50", "value": "0.07 ± 0.06 µM"}
{"Compound": "Oc1ccccc1C1=NN(c2ccccc2)C(c2cccc(C(F)(F)F)c2)C1 (stereo not drawn)", "target or system": "MCF7", "assay": "cell viability, MTT", "conditions": "72 h", "quantity": "EC50", "value": "> 500 µM"}
{"Compound": "O=C(O)COc1ccc(Br)cc1C=NNC(=O)Cc1ccccc1 (mixture of isomers)", "assay": "Racine scale 0-5", "test system": "male mice, pilocarpine-induced seizures", "conditions": "oral, 20 mg/kg, 0.5 h after pilocarpine, unit not given, together with: pilocarpine 300 mg/kg i.p.", "how to read": "higher = more severe", "quantity": "seizure severity", "value": "2.3 ± 0.48"}
{"note": "For quick reference, copied from above:"}
{"Compound": "CC(C)C[C@@H]1NC(=O)[C@H](CCCN)NC(=O)[C@H](C(C)C)NC(=O)[C@@H]2CCCN2C(=O)[C@@H](Cc2ccccc2)NC(=O)[C@H](CC(C)C)NC(=O)[C@H](CCCN)NC(=O)[C@H](C(C)C)NC(=O)[C@@H]2CCCN2C(=O)[C@@H](Cc2ccccc2)NC1=O", "assay": "X-ray reflectivity", "test system": "DPPG monolayer tails", "quantity": "extra electrons per lipid", "value": "34 ± 3"}
